{"data": "Published values pooled from the literature", "note": "Parts stem from different laboratories: compare values within a part only."}
{"data": "Set 1", "target": "RNA binding protein fox-1 homolog 2, RRM domain, GST-SBP tag (RBFOX2, Homo sapiens, UniProt O43251-10, residues 100-194)", "method": "RNA Bind-n-Seq", "molecule type": "RNA", "medium": "in vitro", "tested at": "365 nM", "notes": "natural RNA segment, single round, ends assumed", "baseline": "no-protein control", "direction": "higher = stronger binding", "Residues (chain)": "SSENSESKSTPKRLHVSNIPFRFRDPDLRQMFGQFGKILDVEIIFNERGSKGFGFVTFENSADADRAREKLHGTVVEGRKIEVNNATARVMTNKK"}
{"Strand": "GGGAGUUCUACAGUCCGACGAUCAUGUGGCUUUGCAGGCCCGGCCCAUGCCUCUGCAGCCACACAGCACAACGUCUCUACUGUGCCUAUUACCAAGCGAGUGUUUGUAACCACAUACUUUUGGAAUCCACUGCUGGAAUUCUCGGGUGCCAA", "RBNS enrichment (R)": 0.353}
{"Strand": "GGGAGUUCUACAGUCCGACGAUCUAAAGUCCAAGACAUAGGUUUUUCUAGUUUAUUCCCUGAAGAUCUGUUGCCACAGUUGGGAGAUUUCUUCUUAAUCCUGAUUUUCUUGGUAAGCUUUUUUACUUUAUUAUUGGAAUUCUCGGGUGCCAA", "RBNS enrichment (R)": 0.39}
{"Strand": "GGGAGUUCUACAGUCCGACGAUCAAAGACAUGAAACCUCAGGUAUCCUGCUUUAAGUUGAUAACUCCCUCUGGGAGCUGGAGAAUCGCUCUGGUGGAUGGGUGUACAGAUUUGUAUAUAAUGUCAUUUUUACGUGGAAUUCUCGGGUGCCAA", "RBNS enrichment (R)": 0.279}
{"Strand": "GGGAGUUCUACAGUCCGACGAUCUUUUCCCUUUUUCUGCUGCUCUUGGCAGCAGCCUGGUCAUCAUCUGCUUGUGGGAGUGGGAAAUGGGUAUUUUAGACCCAACACAGGUUCUAAAUUUAAAACAAAUAAUAUGGAAUUCUCGGGUGCCAA", "RBNS enrichment (R)": 0.507}
{"Strand": "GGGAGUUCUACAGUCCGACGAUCUUAAGGUUUAAUAUGCAUUCAGAUUACUUUUACUGAAUAGUACACCAUAAAGCUUUUGUUAUAUAUUAAAUGUAAACUGAAAGGAAUGUAAACAUAUGUAUUGUUAAUUAUGGAAUUCUCGGGUGCCAA", "RBNS enrichment (R)": 0.497}
{"Strand": "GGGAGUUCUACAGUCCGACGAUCAAAAAAAAAGGAAUAGAAACAGUUUCAACCAGAUUGUCCUAUUCCCCCUGUUCCAUUCCCCUCUUCUUCCUUCUAUCUCCUUCCCCGGCAAAAACCAAACAAACUGGCAGUGGAAUUCUCGGGUGCCAA", "RBNS enrichment (R)": 0.675}
{"Strand": "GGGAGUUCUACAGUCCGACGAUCGAGAAUUAAAACUGGGGAGCCAUUUACUAUGUCACCAUCACUGUUAACUGUUUCCCAGCAAUCUAAACUUUUUGAAGUUUCAGAGGUGUAUUUUUUUUUUGUAUAUAUGUUGGAAUUCUCGGGUGCCAA", "RBNS enrichment (R)": 0.478}
{"Strand": "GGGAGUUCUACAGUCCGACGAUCUGUUCCUCUCUCAGGAUCUGUAUGUAAGUGAAAAGCAUCACCAUCUACCCAUUGGCUCAAGCAGAAAUCUGGAAGUCAUCUUUGACUCCUUCCUCUCCCUCCUGAUAAACUGGAAUUCUCGGGUGCCAA", "RBNS enrichment (R)": 0.817}
{"data": "Set 2", "target": "Sal-like protein 4, full length isoform B (SALL4, Homo sapiens, UniProt Q9UJQ4-2, residues 1-616)", "method": "universal PBM", "molecule type": "double-stranded DNA, one strand shown", "medium": "in vitro", "tested at": "not given", "notes": "8-mer, flanks averaged, mean of replicates", "direction": "higher = stronger binding", "Construct (chain)": "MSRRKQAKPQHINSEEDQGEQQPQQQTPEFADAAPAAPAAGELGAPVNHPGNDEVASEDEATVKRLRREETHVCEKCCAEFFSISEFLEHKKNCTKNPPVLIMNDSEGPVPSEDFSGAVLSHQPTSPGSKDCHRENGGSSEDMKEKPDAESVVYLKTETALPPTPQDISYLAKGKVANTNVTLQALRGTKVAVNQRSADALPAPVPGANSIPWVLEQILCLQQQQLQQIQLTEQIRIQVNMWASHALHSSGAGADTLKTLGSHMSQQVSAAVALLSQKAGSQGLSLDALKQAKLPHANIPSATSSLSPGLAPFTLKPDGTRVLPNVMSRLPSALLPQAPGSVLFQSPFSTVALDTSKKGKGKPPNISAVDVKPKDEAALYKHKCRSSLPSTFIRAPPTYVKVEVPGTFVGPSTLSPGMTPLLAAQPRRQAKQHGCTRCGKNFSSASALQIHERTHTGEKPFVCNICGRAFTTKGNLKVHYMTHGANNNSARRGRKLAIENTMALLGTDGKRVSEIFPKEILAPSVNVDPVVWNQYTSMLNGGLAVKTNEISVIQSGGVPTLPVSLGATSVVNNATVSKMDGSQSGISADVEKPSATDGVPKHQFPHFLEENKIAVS"}
{"Strand": "AAGATCCT", "E-score": 0.144}
{"Strand": "ACACGTGA", "E-score": 0.0624}
{"Strand": "AATAGGAT", "E-score": 0.244}
{"Strand": "GGATCGTA", "E-score": -0.0307}
{"Strand": "CAGGTGGC", "E-score": -0.182}
{"Strand": "ACGGAACC", "E-score": -0.0946}
{"Strand": "AAAATCCG", "E-score": -0.0362}
{"Strand": "TCCGCCCA", "E-score": -0.201}
{"Strand": "CAACTCGC", "E-score": -0.0449}
{"Strand": "ACGCGGAA", "E-score": -0.124}
{"Strand": "AGTCCTGC", "E-score": -0.169}
{"Strand": "AACTTCAG", "E-score": -0.00556}
{"data": "Set 3", "target": "RING finger protein unkempt homolog, zinc fingers 1-6, GST-SBP tag (UNK, Homo sapiens, UniProt Q9C0B0, residues 30-357)", "method": "RNA Bind-n-Seq", "molecule type": "RNA", "medium": "in vitro", "tested at": "not given", "notes": "RNA with constant flanks, human-mouse chimeric sites, ends assumed", "baseline": "input RNA pool", "direction": "higher = stronger binding", "chain of UniProt Q9C0B0 (30-357, looked up)": "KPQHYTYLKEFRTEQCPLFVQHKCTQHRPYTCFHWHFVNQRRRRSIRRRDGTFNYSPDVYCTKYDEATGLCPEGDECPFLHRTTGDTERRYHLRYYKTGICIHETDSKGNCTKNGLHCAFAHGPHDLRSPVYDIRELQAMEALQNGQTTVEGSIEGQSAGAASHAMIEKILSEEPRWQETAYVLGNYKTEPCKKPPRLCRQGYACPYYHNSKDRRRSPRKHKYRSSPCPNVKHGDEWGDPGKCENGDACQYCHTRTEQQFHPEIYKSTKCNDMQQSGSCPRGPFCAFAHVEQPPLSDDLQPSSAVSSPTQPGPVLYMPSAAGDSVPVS"}
{"Strand": "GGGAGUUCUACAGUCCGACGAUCUUUCUACUGCAGCAAACGAUGCUAAGAGUGAAGGAUCCUAAGAAGUCACUGGAUUUUUAUACGAGGGUUCUUGGACUGACCCUCCUGCAGAAGCUUGACUUCCCUGCUAUGAAGUUCUCGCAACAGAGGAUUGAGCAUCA", "bound/input enrichment": "0.121 ratio"}
{"Strand": "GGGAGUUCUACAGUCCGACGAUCUUAUCCAAGACUCAACGAAAGACUCCAACGGUUAUUCAUAAACAUUAUCAAAUUCAUCGGAUUCGACAUUUUUACAUGAGAAAAGUCAAAUUUACUCAACAGAAUUACCAUGACAGACUGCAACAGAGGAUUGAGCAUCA", "bound/input enrichment": "0.148 ratio"}
{"Strand": "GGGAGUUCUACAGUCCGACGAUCCAUGUAUCUGCAGUACUUGAUGUGGACUACUCUCCCACUGGGAAGGAAUUUGUGUCUGCCAGCUUUGAUAAAUCUAUUAGAAUCUUUCCUGUGGACAAGAGCCGAAGCAGGGAAGUGUAUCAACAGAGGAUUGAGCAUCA", "bound/input enrichment": "0.501 ratio"}
{"Strand": "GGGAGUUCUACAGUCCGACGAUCUCAUUUUUCUCUUUUCUGAUCGUCAGGAAAAGCCUAACUAAAGAUUAGGUUGUAAGAAAAACAGAAGCCAUGUUUCGAAGACCUGUGUUACAGGUAUUUCGUCAGUUUGUAAGACAUGAGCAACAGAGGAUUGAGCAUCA", "bound/input enrichment": "0.18 ratio"}
{"Strand": "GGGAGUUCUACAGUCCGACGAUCACCUCCCCCUCCCGCCUCACCCCACCCCCGCUUUUUGGAAAGUUUUUGGCGUUUCUUUUUUUUAGAAAGUUAGAAUUAUUACAGUUUCCCCCGCAAGGGUCUAUCGAAGGGCUUGACGGACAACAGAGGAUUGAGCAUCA", "bound/input enrichment": "2.53 ratio"}
{"Strand": "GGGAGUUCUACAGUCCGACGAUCACACAAUAUGAGACCAACAGCAUGGACUUCAAAGUUGGGGCAGAUGGGACAGUCUUCGCCACCCGGGAGCUGCAGGUCCCCUCCGAGCAGGUGGCCUUCACGGUGACUGCGCGGGAAAGCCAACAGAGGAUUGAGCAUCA", "bound/input enrichment": "0.207 ratio"}
{"Strand": "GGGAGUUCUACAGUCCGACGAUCCACAGAGGAGAUCUGCUGUUCCUCACGAAUUUCCGGGAGGACCCCAUCAGAGCUGGUGAAAUAGUUGUUUUUAAGGUUGAAGGACGAGACAUUCCAAUAGUUCACAGAGUAAUCAAGGUUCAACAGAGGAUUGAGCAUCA", "bound/input enrichment": "2.62 ratio"}
{"Strand": "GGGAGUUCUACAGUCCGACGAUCGGACAUCUGUCAAAUUGUUAUGUUCCUAAAAACGUAGUGAACACUCUGAUACACUUCAUCUGCUUGUACAUUUAACUGAUAGAGAAAUGUAAAUAUGUUAAUCCAAGCAAUGUGUCACUUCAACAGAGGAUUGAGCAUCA", "bound/input enrichment": "0.302 ratio"}
{"data": "Further values, each from its own experiment"}
{"Substance": "PhoQ, residues 284 288 289 292 302 303 AAQSYM", "target": "PhoP, residues 12 14 15 18 19 NFCKL (Escherichia coli, UniProt P23836)", "test": "Sort-seq, refers to: YFP reporter", "system": "E. coli", "conditions": "PhoQ-PhoP variant library, added: 10 µM Mg2+", "scale": "baseline: high Mg2+ state, higher = stronger signaling", "endpoint": "fold induction", "result": 1}
